Measured values gathered from unrelated publications.
Several values in a cell are separate wells, animals, samples, runs or records. ± marks the error that the study gave.
OPRM1: Mu-type opioid receptor (OPRM1, Homo sapiens, UniProt P35372)
Chain of UniProt P35372 (whole entry, looked up): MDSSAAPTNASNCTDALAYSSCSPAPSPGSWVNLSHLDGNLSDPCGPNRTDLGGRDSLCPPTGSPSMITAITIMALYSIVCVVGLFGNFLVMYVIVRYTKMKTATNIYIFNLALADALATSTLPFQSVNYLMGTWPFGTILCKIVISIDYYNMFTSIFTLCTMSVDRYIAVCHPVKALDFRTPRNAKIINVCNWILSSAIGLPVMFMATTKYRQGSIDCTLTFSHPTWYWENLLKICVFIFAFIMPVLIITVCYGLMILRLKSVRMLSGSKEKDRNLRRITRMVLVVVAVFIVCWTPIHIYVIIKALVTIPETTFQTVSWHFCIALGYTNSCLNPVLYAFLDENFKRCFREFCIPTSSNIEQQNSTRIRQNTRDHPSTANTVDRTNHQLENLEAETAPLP

Cc1oc2nc1C(=O)N[C@](C)(C(=O)NCCc1ccccc1)c1nc(c(C)o1)C(=O)N[C@](C)(C(=O)NCCc1ccccc1)c1nc(c(C)o1)C(=O)N[C@]2(C)C(=O)NCCc1ccccc1 — inhibition (SARS-CoV-2; virucidal activity; Vero E6, NRC-03-nhCoV; 10 µM): 58%
Cc1ccc(N2CC(N3CCC(C)(O)CC3)C2)cc1C(=O)NC1(c2ccc3c4c(cccc24)CC3)CC1 — inhibition (SARS-CoV-2; viral replication; Vero C1008, Omicron BA.5; 0.01715 µM): 0%
CC[C@H](C)[C@@H]1NC(=O)[C@H](CCCNC(=N)N)NC(=O)[C@H](CO)NC(=O)[C@H](CCC(=O)O)NC(=O)[C@H](CC(=O)O)NC(=O)CNC(=O)CNC(=O)[C@H]([C@@H](C)O)NC(=O)[C@H](Cc2ccccc2)NC(=O)[C@H](CO)NC(=O)[C@H]([C@@H](C)O)NC(=O)[C@H](C)NC(=O)[C@@H]2CSSC[C@@H](C(=O)N[C@@H](Cc3ccc(O)cc3)C(=O)N[C@@H](Cc3ccccc3)C(=O)N[C@H](C(=O)N[C@H](C(=O)NCC(=O)O)[C@@H](C)O)[C@@H](C)O)NC(=O)[C@H]([C@@H](C)O)NC(=O)[C@H](CSSC[C@H](NC(=O)[C@H](CCC(=O)O)NC(=O)[C@H](CO)NC(=O)[C@H](CCCCN)NC(=O)[C@H](Cc3ccc(O)cc3)NC(=O)[C@@H]3CCCN3C(=O)[C@H](Cc3ccccc3)NC(=O)[C@H](CCCCN)NC(=O)[C@H](CCCNC(=N)N)NC(=O)[C@H](CCCCN)NC(=O)[C@H](CCCCN)NC(=O)[C@H](Cc3ccc(O)cc3)NC(=O)[C@@H]3CCCN3C(=O)[C@@H](NC(=O)[C@H](CC(=O)O)NC(=O)[C@H](CCCCN)NC(=O)[C@H](CCCCN)NC(=O)[C@@H](NC(=O)[C@@H](NC(=O)[C@@H](N)CCC(=O)O)C(C)C)[C@@H](C)CC)[C@@H](C)O)C(=O)N[C@@H](CC(C)C)C(=O)N[C@@H](CCCCN)C(=O)N[C@@H](C)C(=O)N2)NC(=O)[C@H](CCCCN)NC(=O)[C@H](Cc2ccccc2)NC(=O)[C@H](Cc2ccccc2)NC(=O)CNC(=O)[C@@H]2CCCN2C(=O)[C@H](CCCCN)NC(=O)CNC(=O)[C@H](CCC(=O)O)NC(=O)[C@H](CCC(N)=O)NC1=O — LD50 (Kunming mouse; iv, 24 h): ~0.85 mg/kg
CC(C)C[C@H](NC(=O)[C@H](CO)NC(=O)[C@H](CCCCN)NC(=O)[C@H](CC(C)C)NC(=O)[C@H](C)NC(=O)[C@H](CCCCN)NC(=O)[C@H](CCC(=O)O)NC(=O)[C@H](C)NC(=O)[C@H](CC(C)C)NC(=O)[C@H](CC(N)=O)NC(=O)[C@@H]1CCCN1C(=O)[C@H](CC(C)C)NC(=O)[C@H](Cc1ccccc1)NC(=O)CNC(=O)[C@H](NC(=O)[C@@H](N)Cc1ccc(O)cc1)[C@H](C)O)C(N)=O — Ki (OPRM1; radioligand displacement; CHO membranes; 60 min, pH 7.5, 25 °C, with: 0.25 nM [3H]DAMGO): 14 ± 2.3 nM
CC(C)CC(C(=O)N1CC2(CC1C#N)C(=O)Nc1ccccc12)N(C)C(=O)c1cc2c(F)cc(F)c(F)c2[nH]1 (stereo not shown) — inhibition (SARS-CoV-2; viral replication, infectious virus; Vero E6; 0.3333 µM): 103%
Cc1ccc(N2CCN(C)CC2)cc1C(=O)NC1(c2ccc3c4c(cccc24)CC3)CC1 — inhibition (SARS-CoV-2; viral replication; Vero C1008, wild type; 12.5 µM): 100%
Cc1oc2nc1C(=O)N[C@](C)(C(=O)OC(C)C)c1nc(c(C)o1)C(=O)N[C@](C)(C(=O)OC(C)C)c1nc(c(C)o1)C(=O)N[C@]2(C)C(=O)OC(C)C — inhibition (SARS-CoV-2; viral replication; Vero E6, NRC-03-nhCoV; 2.5 µM): 0%
Cc1ccc(N2CC3CC(C2)N3)cc1C(=O)NC1(c2ccc3c4c(cccc24)C(=O)N3C)CC1 — inhibition (SARS-CoV-2; viral replication; Vero C1008, XBB.1; 0.01715 µM): 25%
CC(C)(C)NC(=O)[C@@H](c1cccnc1)N(C(=O)c1ccco1)c1ccc(C(C)(C)C)cc1 — viral titre (SARS-CoV-2; Vero; 10 µM): 572000 IU/mL
CCCCCCCCCCCCCCCC(=O)N[C@@H](CCC(=O)NCCOCCOCCC(=O)NCCOCCOCCC(=O)NCCCC[C@H](NC(=O)[C@H](CC(=O)O)NC(=O)[C@H](CC(C)C)NC(=O)[C@H](Cc1ccc(O)cc1)NC(=O)[C@H](CCCCN)NC(=O)[C@H](CO)NC(=O)[C@H](Cc1ccc(O)cc1)NC(=O)[C@H](CC(=O)O)NC(=O)[C@H](CO)NC(=O)[C@@H](NC(=O)[C@H](Cc1ccccc1)NC(=O)[C@@H](NC(=O)CNC(=O)[C@H](CCC(N)=O)NC(=O)[C@@H](CO)NC(=O)[C@@H](N)Cc1c[nH]cn1)[C@@H](C)O)[C@@H](C)O)C(=O)N[C@@H](CCCNC(=N)N)C(=O)N[C@@H](CCCNC(=N)N)C(=O)N[C@@H](C)C(=O)N[C@@H](CCC(N)=O)C(=O)N[C@@H](CC(=O)O)C(=O)N[C@@H](Cc1ccccc1)C(=O)N[C@H](C(=O)N[C@@H](CCC(N)=O)C(=O)N[C@@H](Cc1c[nH]c2ccccc12)C(=O)N[C@@H](CC(C)C)C(=O)N[C@@H](CC(C)C)C(=O)N[C@@H](CC(N)=O)C(=O)N[C@H](C(=O)NCC(=O)NCC(=O)N1CCC[C@H]1C(=O)N[C@@H](CO)C(=O)N[C@@H](CO)C(=O)NCC(=O)N[C@@H](C)C(=O)N1CCC[C@H]1C(=O)N1CCC[C@H]1C(=O)N1CCC[C@H]1C(=O)N[C@@H](CO)C(N)=O)[C@@H](C)O)C(C)C)C(=O)O — Tmax (rhesus monkey, both sexes; subcutaneous, 20 µg/kg, multiple doses, day 7): 2 h
Cc1oc2nc1C(=O)N[C@](C)(C(=O)O)c1nc(c(C)o1)C(=O)N[C@](C)(C(=O)O)c1nc(c(C)o1)C(=O)N[C@]2(C)C(=O)O — inhibition (SARS-CoV-2; virucidal activity; Vero E6, NRC-03-nhCoV; 10 µM): 28%
CC(C)C[C@H](NC(=O)[C@H](CO[C@@H]1O[C@H](CO)[C@@H](O)[C@H](O)[C@H]1O)NC(=O)[C@H](CCCCN)NC(=O)[C@H](CC(C)C)NC(=O)CNC(=O)[C@H](CCCCN)NC(=O)[C@H](CCC(=O)O)NC(=O)[C@H](C)NC(=O)[C@H](CC(C)C)NC(=O)[C@H](CC(N)=O)NC(=O)[C@@H]1CCCN1C(=O)[C@H](CC(C)C)NC(=O)[C@H](Cc1ccccc1)NC(=O)CNC(=O)[C@H](NC(=O)[C@@H](N)Cc1ccc(O)cc1)[C@H](C)O)C(N)=O — Ki (OPRM1; radioligand displacement; CHO membranes; 60 min, pH 7.5, 25 °C, with: 0.25 nM [3H]DAMGO): 2.2 ± 0.3 nM
CCCC/C=C/C(=O)N[C@@H](Cc1csc2ccccc12)C(=O)N[C@H]1COC(=O)[C@@H]2C[C@@H](C)CN2C(=O)[C@H](C)NC(=O)[C@@H]2CCCCN2C(=O)[C@@H]2CCCN2C1=O — replicon activity (SARS-CoV-2; HiBiT luminescence; HeLa replicon; concentration not given, unit not given; relative to: DMSO): 0.565 and 0.489 and 0.702 and 0.491 and 0.465 and 0.439
